Measured values gathered from unrelated publications.
Values joined by “and” are separate records of one study, mostly repeats; a detail may differ. ± gives the spread as reported.
Abhd6: Monoacylglycerol lipase ABHD6 (Abhd6, Rattus norvegicus, UniProt Q5XI64)
Chain of UniProt Q5XI64 (whole entry, looked up): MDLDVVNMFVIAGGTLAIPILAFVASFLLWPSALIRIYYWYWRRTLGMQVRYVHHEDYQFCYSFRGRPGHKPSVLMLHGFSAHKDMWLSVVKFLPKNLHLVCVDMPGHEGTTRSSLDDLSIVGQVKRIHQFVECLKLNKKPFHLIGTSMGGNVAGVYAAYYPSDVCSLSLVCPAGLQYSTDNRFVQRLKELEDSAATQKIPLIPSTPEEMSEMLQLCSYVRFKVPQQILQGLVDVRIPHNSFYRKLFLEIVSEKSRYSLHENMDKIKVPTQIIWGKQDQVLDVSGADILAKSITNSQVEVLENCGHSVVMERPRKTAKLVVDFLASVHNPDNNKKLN
pbp2a: Penicillin-binding protein 2a (pbp2a, Streptococcus pneumoniae, UniProt Q8DNB6)
Chain of UniProt Q8DNB6 (whole entry, looked up): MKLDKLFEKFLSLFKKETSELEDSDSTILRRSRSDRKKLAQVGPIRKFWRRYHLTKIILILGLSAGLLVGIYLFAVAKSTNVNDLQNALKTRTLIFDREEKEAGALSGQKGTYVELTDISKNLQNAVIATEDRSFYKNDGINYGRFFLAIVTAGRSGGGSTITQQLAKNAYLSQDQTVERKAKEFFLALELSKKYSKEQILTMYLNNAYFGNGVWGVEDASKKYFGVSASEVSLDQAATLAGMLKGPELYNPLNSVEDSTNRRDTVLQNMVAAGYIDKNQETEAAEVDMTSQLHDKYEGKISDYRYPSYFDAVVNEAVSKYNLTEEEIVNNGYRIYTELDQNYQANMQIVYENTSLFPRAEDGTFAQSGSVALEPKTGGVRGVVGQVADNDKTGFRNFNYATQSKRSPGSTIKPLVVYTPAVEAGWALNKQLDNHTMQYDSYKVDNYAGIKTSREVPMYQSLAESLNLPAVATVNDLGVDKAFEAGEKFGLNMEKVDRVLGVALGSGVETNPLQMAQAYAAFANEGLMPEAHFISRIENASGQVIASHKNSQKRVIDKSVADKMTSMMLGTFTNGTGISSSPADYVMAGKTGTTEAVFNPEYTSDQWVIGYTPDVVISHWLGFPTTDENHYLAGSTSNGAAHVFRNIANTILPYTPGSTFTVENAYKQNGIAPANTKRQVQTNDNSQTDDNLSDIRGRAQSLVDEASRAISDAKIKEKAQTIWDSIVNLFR
qscR: qscR (Pseudomonas aeruginosa, UniProt G3XD77)
Chain of UniProt P45983 (whole entry, looked up): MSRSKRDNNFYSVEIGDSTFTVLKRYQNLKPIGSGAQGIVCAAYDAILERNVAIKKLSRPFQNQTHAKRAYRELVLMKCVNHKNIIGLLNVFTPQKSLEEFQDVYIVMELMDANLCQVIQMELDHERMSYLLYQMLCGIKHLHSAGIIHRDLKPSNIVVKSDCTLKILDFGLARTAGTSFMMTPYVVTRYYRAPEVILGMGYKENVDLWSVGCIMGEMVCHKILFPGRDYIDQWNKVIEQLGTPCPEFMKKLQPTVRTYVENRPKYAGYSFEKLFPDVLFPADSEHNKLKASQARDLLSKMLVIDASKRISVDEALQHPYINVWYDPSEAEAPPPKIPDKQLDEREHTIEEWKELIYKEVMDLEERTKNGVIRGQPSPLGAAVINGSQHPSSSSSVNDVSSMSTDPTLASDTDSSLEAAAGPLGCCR
Chain of UniProt P08588 (whole entry, looked up): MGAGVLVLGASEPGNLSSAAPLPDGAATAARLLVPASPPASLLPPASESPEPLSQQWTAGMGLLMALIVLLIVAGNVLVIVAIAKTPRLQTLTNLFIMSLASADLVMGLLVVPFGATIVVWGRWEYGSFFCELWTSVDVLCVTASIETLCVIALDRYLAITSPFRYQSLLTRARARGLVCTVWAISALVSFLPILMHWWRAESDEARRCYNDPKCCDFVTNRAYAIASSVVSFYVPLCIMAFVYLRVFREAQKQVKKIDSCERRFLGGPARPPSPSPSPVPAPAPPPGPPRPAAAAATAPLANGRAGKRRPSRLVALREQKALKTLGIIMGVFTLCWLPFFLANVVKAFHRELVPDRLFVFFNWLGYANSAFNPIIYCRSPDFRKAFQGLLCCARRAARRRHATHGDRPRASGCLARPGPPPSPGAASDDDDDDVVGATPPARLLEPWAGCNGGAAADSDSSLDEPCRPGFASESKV
Chain of UniProt Q62351 (whole entry, looked up): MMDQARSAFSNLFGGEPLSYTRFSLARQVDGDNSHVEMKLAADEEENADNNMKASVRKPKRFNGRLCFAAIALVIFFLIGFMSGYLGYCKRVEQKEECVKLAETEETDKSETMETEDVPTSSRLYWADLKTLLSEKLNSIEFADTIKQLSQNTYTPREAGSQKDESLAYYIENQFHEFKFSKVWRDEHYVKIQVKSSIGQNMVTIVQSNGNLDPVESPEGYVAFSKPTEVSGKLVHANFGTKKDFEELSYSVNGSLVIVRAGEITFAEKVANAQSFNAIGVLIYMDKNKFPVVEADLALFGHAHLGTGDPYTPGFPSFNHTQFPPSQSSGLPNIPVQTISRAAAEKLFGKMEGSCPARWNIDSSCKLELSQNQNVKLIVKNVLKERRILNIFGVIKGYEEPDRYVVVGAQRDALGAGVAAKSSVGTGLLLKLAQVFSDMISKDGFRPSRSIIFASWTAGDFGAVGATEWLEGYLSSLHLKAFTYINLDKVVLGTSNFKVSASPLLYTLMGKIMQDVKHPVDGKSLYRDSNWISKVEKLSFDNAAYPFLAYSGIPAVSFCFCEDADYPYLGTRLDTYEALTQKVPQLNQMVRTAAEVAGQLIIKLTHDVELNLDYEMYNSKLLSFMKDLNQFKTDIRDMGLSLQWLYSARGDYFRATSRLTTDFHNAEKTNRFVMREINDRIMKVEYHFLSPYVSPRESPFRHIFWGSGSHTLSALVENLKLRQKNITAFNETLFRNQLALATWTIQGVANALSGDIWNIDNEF
Chain of UniProt P27361 (whole entry, looked up): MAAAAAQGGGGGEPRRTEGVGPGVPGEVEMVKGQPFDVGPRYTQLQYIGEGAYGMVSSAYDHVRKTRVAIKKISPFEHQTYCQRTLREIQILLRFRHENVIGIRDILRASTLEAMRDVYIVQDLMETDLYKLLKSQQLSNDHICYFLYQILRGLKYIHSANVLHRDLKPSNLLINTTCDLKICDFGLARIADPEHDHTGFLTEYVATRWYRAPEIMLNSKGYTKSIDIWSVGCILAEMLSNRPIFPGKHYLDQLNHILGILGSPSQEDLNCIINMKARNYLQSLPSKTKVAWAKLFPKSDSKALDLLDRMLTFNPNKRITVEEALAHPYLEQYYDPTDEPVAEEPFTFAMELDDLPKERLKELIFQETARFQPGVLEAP
Chain of UniProt Q9UJZ1 (whole entry, looked up): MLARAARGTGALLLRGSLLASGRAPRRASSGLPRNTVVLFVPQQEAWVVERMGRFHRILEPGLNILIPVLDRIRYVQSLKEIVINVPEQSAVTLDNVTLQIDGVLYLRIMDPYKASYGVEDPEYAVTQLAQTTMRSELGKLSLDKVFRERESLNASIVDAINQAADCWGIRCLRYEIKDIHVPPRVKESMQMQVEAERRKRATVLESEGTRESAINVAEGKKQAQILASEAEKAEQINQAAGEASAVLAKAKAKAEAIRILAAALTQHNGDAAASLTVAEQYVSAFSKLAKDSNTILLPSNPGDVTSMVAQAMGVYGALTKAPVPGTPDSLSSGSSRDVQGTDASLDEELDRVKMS
Chain of UniProt Q07065 (whole entry, looked up): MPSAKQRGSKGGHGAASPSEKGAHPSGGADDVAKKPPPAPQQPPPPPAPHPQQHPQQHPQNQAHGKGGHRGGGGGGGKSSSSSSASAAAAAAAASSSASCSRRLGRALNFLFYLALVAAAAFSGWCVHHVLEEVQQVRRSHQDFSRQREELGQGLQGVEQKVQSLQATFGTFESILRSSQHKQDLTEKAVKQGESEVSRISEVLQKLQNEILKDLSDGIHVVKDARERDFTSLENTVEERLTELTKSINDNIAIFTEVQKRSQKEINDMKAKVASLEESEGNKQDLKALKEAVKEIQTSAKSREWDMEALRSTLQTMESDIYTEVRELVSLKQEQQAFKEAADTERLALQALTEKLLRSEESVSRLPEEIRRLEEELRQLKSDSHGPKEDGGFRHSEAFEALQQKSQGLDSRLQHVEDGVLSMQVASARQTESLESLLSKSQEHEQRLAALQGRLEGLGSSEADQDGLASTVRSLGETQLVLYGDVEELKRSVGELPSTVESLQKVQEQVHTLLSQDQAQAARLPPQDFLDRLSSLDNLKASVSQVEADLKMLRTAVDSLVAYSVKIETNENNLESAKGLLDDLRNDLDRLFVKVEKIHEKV
Chain of UniProt O43603 (whole entry, looked up): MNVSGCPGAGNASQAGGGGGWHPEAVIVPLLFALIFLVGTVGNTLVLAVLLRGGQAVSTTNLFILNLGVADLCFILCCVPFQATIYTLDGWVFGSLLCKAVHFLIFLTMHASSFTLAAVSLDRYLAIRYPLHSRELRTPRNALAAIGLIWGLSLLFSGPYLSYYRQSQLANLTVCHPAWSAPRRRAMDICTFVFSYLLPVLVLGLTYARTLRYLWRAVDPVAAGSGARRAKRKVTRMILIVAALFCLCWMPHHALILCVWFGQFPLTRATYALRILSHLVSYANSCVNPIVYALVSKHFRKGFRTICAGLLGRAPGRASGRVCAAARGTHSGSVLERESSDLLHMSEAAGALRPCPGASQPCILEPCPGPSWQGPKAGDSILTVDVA
Chain of UniProt Q86YV6 (whole entry, looked up): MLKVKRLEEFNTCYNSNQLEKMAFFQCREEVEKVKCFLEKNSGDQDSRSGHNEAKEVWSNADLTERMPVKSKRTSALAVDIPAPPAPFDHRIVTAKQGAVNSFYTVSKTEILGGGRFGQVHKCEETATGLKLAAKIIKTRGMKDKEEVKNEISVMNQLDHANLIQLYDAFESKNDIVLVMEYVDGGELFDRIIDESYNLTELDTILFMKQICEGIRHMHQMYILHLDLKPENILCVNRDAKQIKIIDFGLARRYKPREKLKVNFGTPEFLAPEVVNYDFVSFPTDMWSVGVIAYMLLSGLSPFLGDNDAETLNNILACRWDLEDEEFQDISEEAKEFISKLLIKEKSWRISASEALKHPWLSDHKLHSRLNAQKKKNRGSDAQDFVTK

CC(C)[C@@H](O)CC[C@@H](C)[C@H]1CC[C@H]2[C@@H]3CC=C4C[C@@H](O)CC[C@]4(C)[C@H]3CC[C@]12C — current potentiation (Glutamate NMDA receptor; GRIN1/GRIN2B (GRIN1/GRIN2B, Homo sapiens, UniProt Q05586+Q13224, F754A); ion current, positive allosteric modulator, two-electrode voltage clamp; Xenopus oocytes; 10 µM, GluN1-F754A mutant, added: 100 µM glutamate and glycine; reference: absence of compound): 123 ± 7.1%
O=C(O)Cc1c[nH]cn1 — normalised MST signal (SLC6A6 (Homo sapiens, UniProt P31641, Y138A); binding, microscale thermophoresis; 244 nM, room temperature, added: 50 nM labelled protein; higher = more binding): -0.0795
CC[C@H](C)[C@H](NC(=O)[C@H](Cc1ccccc1)NC(=O)[C@H](CCC(=O)O)NC(=O)[C@H](CCCNC(=N)N)NC(=O)[C@H](C)NC(=O)[C@H](C)NC(=O)[C@H](CCC(N)=O)NC(=O)[C@H](CCC(=O)O)NC(=O)[C@H](CCC(=O)O)NC(=O)[C@H](CC(C)C)NC(=O)[C@H](Cc1ccc(O)cc1)NC(=O)[C@H](CO)NC(=O)[C@H](CO)NC(=O)[C@@H](NC(=O)[C@H](CC(=O)O)NC(=O)[C@H](CO)NC(=O)[C@@H](NC(=O)[C@H](Cc1ccccc1)NC(=O)[C@@H](NC(=O)CNC(=O)[C@H](CCC(=O)O)NC(=O)[C@H](C)NC(=O)CCc1cnc[nH]1)[C@@H](C)O)[C@@H](C)O)C(C)C)C(=O)N[C@@H](C)C(=O)N[C@@H](Cc1c[nH]c2ccccc12)C(=O)N[C@@H](CC(C)C)C(=O)N[C@H](C(=O)N[C@@H](CCCNC(=N)N)C(=O)NCC(=O)N[C@@H](CCCNC(=N)N)C(=O)N[C@@H](CCCCNC(=O)COCCOCCNC(=O)COCCOCCNC(=O)CC[C@H](NC(=O)CCCCCCCCCCCCCCCCC(=O)O)C(=O)O)C(=O)NCC(=O)NCC(=O)N[C@@H](CO)C(=O)N[C@@H](CCCCNC(=O)[C@H](CCCCNc1c(NCCCCCN(O)C(=O)CCC(=O)NCCCCCN(O)C(=O)CCC(=O)NCCCCCN(O)C(C)=O)c(=O)c1=O)Nc1c(NCCCCCN(O)C(=O)CCC(=O)NCCCCCN(O)C(=O)CCC(=O)NCCCCCN(O)C(C)=O)c(=O)c1=O)C(=O)O)C(C)C — EC50 (GLP1R (Homo sapiens, UniProt P43220); cAMP reporter gene, agonist, CRE luciferase; BHK; with Zr, 1% HSA): 0.1 nM
O=C(c1ccc(Cl)cc1)N1CCN2C(=O)N(OC(=O)N3CCOc4ccccc43)C(=O)C2C1 (centres unmarked) — median ratio (PPT2 (Homo sapiens, UniProt Q9UMR5); enzyme activity, inhibitor, MS-based ABPP; SW-620 in situ; 10 µM, 2 h, 37 °C; reference: compound over DMSO, lower = stronger inhibition): 1.08
CN(CC(=O)O)C(=N)NP(=O)(O)O — kcat (CKMT1A (Homo sapiens, UniProt P12532); substrate, Kinase-Glo luminescence; pH 7.0, reverse reaction, WT mutant, added: second substrate in excess): 39 ± 13 s⁻¹
CC[C@H](C)[C@@H]1NC(=O)[C@H](Cc2c[nH]c3ccccc23)NC(=O)[C@H](Cc2ccc(O)cc2)NC(=O)CSC[C@@H](C(N)=O)NC(=O)[C@H]([C@@H](C)O)NC(=O)[C@H](CO)NC(=O)[C@H](C(C)C)NC(=O)[C@H](Cc2ccc(O)cc2)NC(=O)[C@H](CCCNC(=N)N)NC(=O)[C@H](Cc2ccc(O)cc2)NC(=O)[C@H]([C@@H](C)O)NC(=O)[C@H]([C@@H](C)O)NC(=O)[C@H](Cc2c[nH]c3ccccc23)NC(=O)[C@H](CO)NC(=O)[C@H](CC(N)=O)NC(=O)[C@H](CO)NC1=O — ΔH (Vacuolar protein sorting-associated protein 26A/Vacuolar protein sorting-associated protein 35, Vps35 residues 1–224 (Homo sapiens, UniProt O75436+Q96QK1); ITC; 25 °C): -7 ± 1.7 kcal/mol
CCOC(=O)COc1ccc2c(=O)c3ccccc3oc2c1 — reaction velocity (ache (Electrophorus electricus, UniProt O42275); enzyme activity; 3.36 µM, added: substrate 6.90 mM; higher = faster reaction): 0.0034 a.u.
CN1CCN(c2cc(-c3ccncc3)c(-c3ccc4ccccc4c3)nn2)CC1 — activation (ADRB1 (Homo sapiens, UniProt P08588); agonist, FLIPR; 12.5 µM): -0.9%
Cc1cc(C)n2c1C=C1C=CC(CCC(=O)Nc3ccc(OCC(=O)N[C@@H]4C(=O)N5[C@@H]4SC(C)(C)[C@@H]5C(=O)[O-])cc3)=[N+]1[B-]2(F)F.[Na+] — kinact/KI (Penicillin-binding protein 2X (Streptococcus pneumoniae R6, UniProt P59676); whole-cell time course; live Streptococcus pneumoniae cells): 206000 ± 30000 M⁻¹ s⁻¹
O=C[C@H](O)COP(=O)(O)O — Km (TPI1 (Saccharomyces cerevisiae, UniProt P00942, Y208S); substrate, GPDH/NADH-coupled; pH 5.7, 25 °C): ~29 mM
COc1cc(N)c(Cl)cc1C(=O)NC1CN2CCC1CC2 (centres unmarked) — log2 fold change (G-protein coupled receptor 78 (GPR78, Homo sapiens, UniProt Q96P69); β-arrestin recruitment, TANGO luminescence, measured: GPR78; concentration not given; reference: basal luminescence): 0.157
COc1cc2nccc(Oc3ccc(NC(=O)c4cc5c(n(-c6ccccc6)c4=O)CCCC5=O)nc3)c2cc1OC — selectivity ratio (NTRK1 (Homo sapiens, UniProt P04629); cell viability, CellTiter-Glo; Ba/F3 expressing recombinant kinase; reference: NTRK1 IC50 over AXL IC50): 51
CN(C(=O)n1cnc(-c2ccc[n+]([O-])c2)c1)C1CCCCC1 — fold change (Abhd6; enzyme activity, ABPP; rat, brain; oral, 10 mg/kg/day, 7 days; reference: vehicle): -5.2
O=C1C2(Cl)C3(Cl)C4(Cl)C(Cl)(Cl)C5(Cl)C3(Cl)C1(Cl)C5(Cl)C24Cl (centres unmarked) — Hill slope (Thyroxine 5-deiodinase (DIO3, Homo sapiens, UniProt P55073, C168G); inhibitor; C168G variant): -2.84
C[C@@H](O)[C@@H](CO)NC(=O)[C@@H](CCCNC(=N)N)NC(=O)[C@@H]1CCCN1C(=O)[C@@H]1CSSC[C@H](NC(=O)[C@H](Cc2ccccc2)NC(=O)CN2CCN(CC(=O)O)CCN(CC(=O)O)CCN(CC(=O)O)CC2)C(=O)N[C@@H](Cc2ccc(O)cc2)C(=O)N[C@@H](Cc2ccccc2)C(=O)N[C@@H](CCC(N)=O)C(=O)N[C@@H](CC(N)=O)C(=O)N1 [gallium-68 labelled] — tissue uptake (healthy Wistar rat, spleen; intravenous, 8 MBq, 30 min, individual animals): 0.3 %ID/g
COc1cc(Nc2ncc(F)c(Nc3ccc4c(n3)NC(=O)C(C)(C)O4)n2)cc(OC)c1OC — IC50 (MMP1 (Homo sapiens, UniProt P03956); metalloproteinase-1): > 10000 nM
C[C@H]1CN(c2n[nH]c3nc(N[C@H]4CC[C@H](NS(=O)(=O)CCC(F)(F)F)CC4)ncc23)CCO1 — remaining binding (Stomatin-like protein 2, mitochondrial (Homo sapiens, UniProt Q9UJZ1); Kinobeads competition, measured: STOML2; 0.032 µM, unit not given; reference: vehicle): 1.06
Nc1ncc(-c2nc(N3CCOCC3)nc(N3CCOCC3)n2)c(C(F)F)n1 — remaining binding (MYLK4 (Homo sapiens, UniProt Q86YV6); KINOMEscan; 10 µM; reference: control): 87%
CN[C@@H]1C[C@H]2O[C@@](C)([C@@H]1OC)n1c3ccccc3c3c4c(c5c6ccccc6n2c5c31)C(=O)NC4 — remaining activity (CDC2-like kinase 1 (Trypanosoma brucei brucei, UniProt Q382U0); kinase activity, ADP-Glo; 0.01953 µM): 84.2%
CC[C@H](CO)Nc1nc(NCc2ccc(-c3ccccn3)cc2)c2ncn(C(C)C)c2n1 — binding score (CSNK1E (Homo sapiens, UniProt P49674); KINOMEscan competition binding; 10 µM, primary screen; direction not given): 0.35
[2H]c1c([2H])c([C@]2([2H])CCCN2C(=O)C(C)(C)Oc2ccc3cn[nH]c3c2)c([2H])c([2H])c1C([2H])([2H])[2H] — remaining binding (CSNK1G3 (Homo sapiens, UniProt Q9Y6M4); KINOMEscan; 1 µM; reference: DMSO control): 64%
CCOC(=O)CC(SP(=O)(OC)OC)C(=O)OCC (centres unmarked) — remaining activity (uncharacterized protein (Anopheles coluzzii, UniProt A0A6E8VQK1); enzyme activity, inhibitor; Sf9 cell homogenate; 34.4 µM, 0.1667 h, added: α-naphthyl acetate substrate; reference: no inhibitor): 2.29%
COc1cc(O)cc(/C=C/c2ccc(O)cc2)c1 — -TΔS (O-methyltransferase (Sorghum bicolor, UniProt A0A1B6PFV1); ITC; added: SAH+): 1.05 kcal/mol
CCN(CC)CCCC[C@H](NC(=O)[C@H](CC(C)C)NC(=O)[C@H](C)NC(=O)[C@H](Cc1ccccc1)NC(=O)c1ccc(C(C)(C)C)cc1)C(=O)N[C@@H](CO)C(=O)OC — specific binding (GALR2 (Homo sapiens, UniProt O43603); radioligand binding; 10 µM): 121%
O=C(Nc1nncs1)C(F)(F)Br — association constant (MAPK8 (Homo sapiens, UniProt P45983); binding, isothermal titration calorimetry): 5800 M⁻¹ and 4910 M⁻¹ and 4920 M⁻¹
COC(=O)[C@@]1(O)C[C@H]2O[C@]1(C)n1c3ccccc3c3c4c(c5c6ccccc6n2c5c31)C(=O)NC4 — remaining activity (MAPK3 (Homo sapiens, UniProt P27361); ADP-Glo; 4.15 µM, added: substrate MBP): 110%
CCCc1csc2c1-c1nc(SCC(=O)C(C)(C)C)ncc1CC2 — active site volume (Dual specificity protein phosphatase 10, catalytic domain (Homo sapiens, UniProt Q9Y6W6); X-ray co-crystal structure; concentration not given): 48.3 ± 2.9 Å³
COc1cccc(OC)c1C(=O)N[C@@H]1C(=O)N2[C@@H]1SC(C)(C)[C@@H]2C(=O)O — kinact/KI (pbp2a; inhibitor): 160 ± 21 M⁻¹ s⁻¹
CN(C(=O)n1cnc(-c2ccc[n+]([O-])c2)c1)C1CCCCC1 — inhibition (Abhd6; FP probe labelling, competitive ABPP; rat brain soluble fraction; 100 µM): 96.4%
Nc1ncnc2c1ncn2[C@@H]1O[C@H](COP(=O)(O)OP(=O)(O)O)[C@@H](O)[C@H]1O — ΔH (Cell cycle histidine kinase CckA, cytoplasmic region (Caulobacter vibrioides, UniProt Q9X688); binding, ITC; added: without c-di-GMP): -1.56 ± 0.102 kcal/mol
C/C=C1\C(=O)C[C@H]2[C@@H]3CCC4=CC(=O)CC[C@]4(C)[C@H]3CC[C@]12C — activity (NR1H3 (Homo sapiens, UniProt Q13133); concentration not given): inactive
CC1(C)S[C@@H]2[C@H](NC(=O)Cc3ccccc3)C(=O)N2[C@H]1C(=O)O — kinact/KI (pbp2a; inhibitor): 15000 ± 5400 M⁻¹ s⁻¹
CCCCCCCCCCCC(=O)N[C@H]1CCOC1=O — K0.5 (qscR; ligand binding, FRET displacement; intact cells; apparent affinity): 10.7 nM
C#CCCCCNC(=O)CI — reactivity ratio (Cytoskeleton-associated protein 4 (Homo sapiens, UniProt Q07065); mass spectrometry profiling; Ramos cell lysate; 100 µM over 10 µM, UniProt Q07065; reference: high over low concentration): 1.59
COc1cccc(-c2nsc(=O)o2)c1 — kobs/[I] (PSMB6 (Homo sapiens, UniProt P28072); enzyme inactivation, inhibitor; human PA28-activated proteasome): 0.59 M⁻¹ s⁻¹
CC[C@@H](C)[C@@H](NC(=O)[C@@H](Cc1ccc(O)cc1)NC(=O)[C@H]1CCCN1C(=O)[C@@H](CCCNC(=N)N)NC(=O)[C@H](N)Cc1c[nH]cn1)C(=O)N[C@H](C)C(=O)N[C@H](Cc1c[nH]cn1)C(=O)N[C@H](CCCNC(=N)N)C(=O)N[C@H](CCCCNC(=O)c1cccc(S(=O)(=O)F)c1)C(=O)N[C@H](Cc1ccc(O)cc1)C(=O)N[C@H](CO)C(=O)N[C@H](Cc1ccccc1)C(N)=O — surface TFRC expression (Transferrin receptor protein 1 (Tfrc, Mus musculus, UniProt Q62351); flow cytometry; RAW264.7; 2 h, pH 7.4, unit not given; reference: 0 h): 0.583
O=C(Nc1cccnn1)N1CCC(=Cc2cccc(Oc3ccc(C(F)(F)F)cn3)c2)CC1 — inhibition (Abhd6; probe labelling, inhibitor, competitive ABPP with azido-FP probe, measured: ABHD6; rat brain soluble fraction; 0.1 µM): 5.1%
Clc1cc2c(cc1Cl)Oc1cc(Cl)c(Cl)cc1O2 — maximal fold induction (Uncharacterized protein (Takifugu rubripes, UniProt Q4JHL4); reporter gene, agonist, dual-luciferase; COS-7; 24 h; reference: top over bottom): 6.57 ± 1.83
CCN1CCC[C@H]1CNC(=O)c1c(O)c(Cl)cc(Cl)c1OC — log2 fold change (PRLHR (Homo sapiens, UniProt P49683); receptor activation, TANGO luminescence; concentration not given, unconfirmed screen; reference: vehicle control): 0.007
CCCCCCCCCC(=O)NC1CCCC1 — melting temperature (qscR; ligand, differential scanning fluorimetry; ligand complex): 46.2 °C
COc1ccc(N2C(=O)N(c3c(C)cccc3Cl)Cc3cnc(Nc4ccc(C5CCN(C)CC5)cc4OC)nc32)nc1 — inhibition (PIM2 (Homo sapiens, UniProt Q9P1W9); kinase activity; 0.5 µM): 2.44%

Some of these lines once more:
COc1cc(N)c(Cl)cc1C(=O)NC1CN2CCC1CC2 (centres unmarked) — log2 fold change (G-protein coupled receptor 78 (GPR78, Homo sapiens, UniProt Q96P69); β-arrestin recruitment, TANGO luminescence, measured: GPR78; concentration not given; reference: basal luminescence): 0.157
COc1cc2nccc(Oc3ccc(NC(=O)c4cc5c(n(-c6ccccc6)c4=O)CCCC5=O)nc3)c2cc1OC — selectivity ratio (NTRK1 (Homo sapiens, UniProt P04629); cell viability, CellTiter-Glo; Ba/F3 expressing recombinant kinase; reference: NTRK1 IC50 over AXL IC50): 51
